Measured values gathered from unrelated publications.
Lines come from different studies, so protocols differ. Values joined by “and” are separate records of one study, mostly repeats; a detail may differ. ± gives the spread as reported.
B1: enzyme (Homo sapiens, UniProt Q9NTI2); chain MLNGAGLDKALKMSLPRRSRIRSSVGPVRSSLGYKKAEDEMSRATSVGDQLEAPARTIYLNQPHLNKFRDNQISTAKYSVLTFLPRFLYEQIRRAANAFFLFIALLQQIPDVSPTGRYTTLVPLIIILTIAGIKEIVEDFKRHKADNAVNKKKTIVLRNGMWHTIMWKEVAVGDIVKVVNGQYLPADVVLLSSSEPQAMCYVETANLDGETNLKIRQGLSHTADMQTREVLMKLSGTIECEGPNRHLYDFTGNLNLDGKSLVALGPDQILLRGTQLRNTQWVFGIVVYTGHDTKLMQNSTKAPLKRSNVEKVTNVQILVLFGILLVMALVSSAGALYWNRSHGEKNWYIKKMDTTSDNFGYNLLTFIILYNNLIPISLLVTLEVVKYTQALFINWDTDMYYIGNDTPAMARTSNLNEELGQVKYLFSDKTGTLTCNIMNFKKCSIAGVTYGHFPELAREPSSDDFCRMPPPCSDSCDFDDPRLLKNIEDRHPTAPCIQEFLTLLAVCHTVVPEKDGDNIIYQASSPDEAALVKGAKKLGFVFTARTPFSVIIEAMGQEQTFGILNVLEFSSDRKRMSVIVRTPSGRLRLYCKGADNVIFERLSKDSKYMEETLCHLEYFATEGLRTLCVAYADLSENEYEEWLKVYQEASTILKDRAQRLEECYEIIEKNLLLLGATAIEDRLQAGVPETIATLLKAEIKIWVLTGDKQETAINIGYSCRLVSQNMALILLKEDSLDATRAAITQHCTDLGNLLGKENDVALIIDGHTLKYALSFEVRRSFLDLALSCKAVICCRVSPLQKSEIVDVVKKRVKAITLAIGDGANDVGMIQTAHVGVGISGNEGMQATNNSDYAIAQFSYLEKLLLVHGAWSYNRVTKCILYCFYKNVVLYIIELWFAFVNGFSGQILFERWCIGLYNVIFTALPPFTLGIFERSCTQESMLRFPQLYKITQNGEGFNTKVFWGHCINALVHSLILFWFPMKALEHDTVLTSGHATDYLFVGNIVYTYVVVTVCLKAGLETTAWTKFSHLAVWGSMLTWLVFFGIYSTIWPTIPIAPDMRGQATMVLSSAHFWLGLFLVPTACLIEDVAWRAAKHTCKKTLLEEVQELETKSRVLGKAVLRDSNGKRLNERDRLIKRLGRKTPPTLFRGSSLQQGVPHGYAFSQEEHGAVSQEEVIRAYDTTKKKSRKK
B2: enzyme (Enterococcus faecalis, UniProt Q836M4); chain MEIHFEKVTSDNRKAVENLQVFAEQQAFIESMAENLKESDQFPEWESAGIYDGNQLIGYAMYGRWQDGRVWLDRFLIDQRFQGQGYGKAACRLLMLKLIEKYQTNKLYLSVYDTNSSAIRLYQQLGFVFNGELDTNGERVMEWTHQNK
B3: Streptomyces antibioticus OleD glycosyltransferase; sequence looked up; chain MTTQTTPAHIAMFSIAAHGHVNPSLEVIRELVARGHRVTYAIPPVFADKVAATGPRPVLYHSTLPGPDADPEAWGSTLLDNRRTFLNDAIQALPQLADAYADDIPDLVLHDITSYPARVLARRWGVPAVSLSPNLVAWKGYEEEVAEPMWREPRQTERGRAYYARFEAWLKENGITEHPDTFASHPPRSLVLIPKALQPHADRVDEDVYTFVGACQGDRAEEGGWQRPAGAEKVVLVSLGSAFTKQPAFYRECVRAFGNLPGWHLVLQIGRKVTPAELGELPDNVEVHDWVPQLAILRQADLFVTHAGAGGSQEGLATATPMIAVPQAVDQFGNADMLQGLGVARKLATEEATADLLRETALALVDDPEVARRLRRIQAEMAQEGGTRRAADLIEAELPARHERQEPVGDRPNVGDRPAGVRSDRQRSAL
B4: Urtica dioica agglutinin; sequence looked up; chain QRCGSQGGGGTCPALWCCSIWGWCGDSEPYCGRTCENKCWSGERSDHRCGAAVGNPPCGQDRCCSVHGWCGGGNDYCSGSKCQYRCSSSVRGPRVALSGNSTANSIGNVVVTEPLFDQMFSHRKDCPSQGFYSYHSFLVAAESFPAFGTIGDVATRKREVAAFLAHISQATSGERSDVENPHAWGLCHINTTTVTENDFCTSSDWPCAAGKKYSPRGPIQLTHNFNYGLAGQAIGEDLIQNPDLVEKDPIISFKTALWFWMSQHDNKPSCHDIVLNANSAANRIPNKGVIGNIISRAFGHDDFAVRSSSIGFYKRYCDMLGVSYGHDLKYWFDNTPSSEFQRIQMRVAA
Sequence of UniProt P67087 (whole entry, looked up): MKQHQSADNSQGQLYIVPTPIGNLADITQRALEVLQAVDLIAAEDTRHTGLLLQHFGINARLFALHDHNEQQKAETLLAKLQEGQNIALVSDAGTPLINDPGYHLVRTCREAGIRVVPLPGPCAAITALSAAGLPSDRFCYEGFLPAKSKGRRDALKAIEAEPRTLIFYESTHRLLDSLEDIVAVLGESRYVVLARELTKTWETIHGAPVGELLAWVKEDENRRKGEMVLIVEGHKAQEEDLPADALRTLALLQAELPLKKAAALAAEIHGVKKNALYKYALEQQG

| Molecule | tested on | assay | test system | conditions | how to read | quantity | result |
| --- | --- | --- | --- | --- | --- | --- | --- |
| rsmI (Escherichia coli, UniProt P67087) | itself | cryo-EM | – | – | – | molecule per partner | 2 |
| B1 (enzyme) | CCCCCCCC/C=C\CCCCCCCC(=O)OC[C@H](COP(=O)(O)OC[C@H](N)C(=O)O)OC(=O)CCCCCCC/C=C\CCCCCCCC | steady-state kinetics | – | pH 7.5, 37 °C, with: ATP 5 mM | – | K0.5 | 19.4 µM |
| B2 (enzyme) | NCCCCNCCCN | steady-state kinetics | – | pH 8, 37 °C, with: AcCoA 1 mM | – | K0.5 | 424 µM |
| aspterric acid | – | – | Arabidopsis thaliana Col-0 seeds | 3.125 µg/mL, seed germination | – | root length | 1.08 cm |
| nonaarginine | PorA peptide pore | peptide binding, planar bilayer single-channel recording | – | pH 7.4, +5 mV, trans side, 150 mM KCl | – | Kd | 1210 ± 100 nM |
| amyloid β-peptide (1–28) | – | substrate, LC-MS | phosphate buffer | 10 µM, 2 h, pH 7.4, 25 °C, with: imprinted nanoparticle 1 equiv | – | remaining substrate | 82.4 ± 3.2% |
| Leu-enkephalin | – | LC-MS3 | rat dialysate with 5% acetic acid | -80 °C | – | storage stability time | ~5 days |
| heparin sodium | – | – | healthy Chinese adult volunteers | continuous intravenous infusion, 8 IU/kg/h, 5 days | – | positive urine leukocytes | 0% |
| glucagon | – | ELISA | human, non-diabetic, femoral artery plasma | baseline | – | arterial plasma concentration | 24.3 ± 1.4 pg/mL |
| B3 | – | glycosylation | Tris-HCl buffer | 4 h, pH 9.0, 35 °C, with: NOS substrate 2 mM, UDP-glucose 5 mM | – | apparent kcat | 0.01 ± 0.01 s⁻¹ |
| CRQLRKGKFFSEGGSGGTSFEQFWAWLWP | – | ICP-MS | peptide, BALB/c nude mice | – | – | half-life | 9.6 h |
| insulin human | – | measured: DLG4 | mouse, EcoHIV-infected, brain | ip, dose not given, with: insulin | reference: PBS-treated | mRNA fold change | 0.94 |
| Polymyxin B | – | – | mouse | intraperitoneal, 40 mg/kg single dose, day 2 | – | survival | 0% |
| B4 (Urtica dioica agglutinin) | CRFK | MTS | – | – | – | CC50 | > 100 µg/mL |
| HVLVMSATRR | – | – | peptide, C57BL/6J mice, male, blood | subcutaneous osmotic pump, 3 mg/kg/day peptide basis, 8 weeks | – | mean cell volume | 46.2 fL and 45.9 fL and 47.3 fL and 45.6 fL |
| enzyme (Bos taurus, UniProt C7EXK4) | CCCCCCCC/C=C\CCCCCCCC(=O)OC[C@H](COP(=O)(O)OC[C@H](N)C(=O)O)OC(=O)CCCCCCC/C=C\CCCCCCCC | steady-state kinetics | – | pH 7.5, 37 °C, with: ATP 5 mM | – | K0.5 | 20.5 µM |
